Experimental data pooled from the literature.
Numbered parts are unrelated; each lists some results of a single study. “And” joins repeats or separate records; there may be more than shown.

Series 1 — effect on: binding; action: competitor; method: NanoBRET; cell line: HEK293
SMILES: C#Cc1cccc2cc(O)cc(-c3ncc4c(N5CC6CCC(C5)N6)nc(OCC56CCCN5CCC6)nc4c3F)c12
Target: GTPase HRas (HRAS, Homo sapiens, UniProt P01112)
For 10 µM: normalized BRET read 38.5% and 49.7% and 59.2% and 54.2%.
169 pM — normalized BRET: 92.9% and 92% and 99.1% and 102%.
The normalized BRET was 68.3% and 96% and 92.2% and 81% (1.11 µM).
The normalized BRET was 104% and 102% and 111% and 92.9% (4.57 nM).

Series 2 — cell line: L444P/L444P Gaucher fibroblasts; method: 4-MUG hydrolysis in lysate; tested at: 1 µM; time: 72 h; reference: vehicle
The enzyme activity of `CCOc1ccc2nc(Sc3nc(Nc4ccc(OC)cc4)nc(N4CCOCC4)n3)sc2c1` is reported as 120%.
For `Fc1ccc(Nc2nc(NCCN3CCOCC3)nc(N3CCOCC3)n2)cc1`, the enzyme activity was 98%.
`Ic1ccc(Nc2nc(NCCN3CCOCC3)nc(N3CC4CCC(C3)O4)n2)cc1` has an enzyme activity of 102%.
`Ic1ccc(Nc2nc(NCCc3c[nH]c4ccccc34)nc(N3CCOCC3)n2)cc1` gave an enzyme activity of 175% and 181% and 184% and 193%.
With `CCOc1ccc2nc(Sc3nc(NCCN4CCOCC4)nc(Nc4ccc(I)cc4)n3)sc2c1` the enzyme activity was 104%.
`Ic1ccc(Nc2nc(N3CCOCC3)nc(N3CCOCC3)n2)cc1` has an enzyme activity of 166%.
`c1ccc(Nc2nc(NCCN3CCOCC3)nc(N3CCOCC3)n2)cc1` has an enzyme activity of 98%.
With `Ic1ccc(Nc2nc(NCCCN3CCOCC3)nc(N3CCOCC3)n2)cc1` the enzyme activity was 158%.

Further values, each from its own experiment
`COC(=O)c1ccc(Nc2c3c(nc4ccccc24)CCC3)cc1` gave a selectivity ratio of 3.69 (Leishmania donovani; THP-1, DD8 promastigote; reference: THP-1 cytotoxicity over promastigote activity).
The Vss of `Cn1cc(-c2cccc(CN3CCC4(CC3)COc3c4ccc4c3CN([C@H]3CCC(=O)NC3=O)C4=O)c2)cn1` is reported as 2.47 L/kg and 3.17 L/kg and 3.24 L/kg (rat; intravenous, 1 mg/kg).
The selectivity ratio of `c1ccc2c(Nc3ccc4c(c3)OCCO4)c3c(nc2c1)CCC3` is reported as 10.7 (Leishmania donovani; THP-1, DD8 promastigote; reference: THP-1 cytotoxicity over promastigote activity).
`COc1ccc(OC)c(Nc2c3c(nc4ccccc24)CCC3)c1` gave an IC50 of 3.15 µM and 4.37 µM (Leishmania donovani; viability, resazurin; DD8; promastigotes).
For `Clc1ccc(Nc2c3c(nc4ccccc24)CCC3)cc1`, the selectivity ratio was 3.04 (Leishmania donovani; THP-1, DD8 promastigote; reference: THP-1 cytotoxicity over promastigote activity).

Some of these lines once more (series 2):
`Ic1ccc(Nc2nc(NCCc3c[nH]c4ccccc34)nc(N3CCOCC3)n2)cc1` gave an enzyme activity of 175% and 181% and 184% and 193%.
With `CCOc1ccc2nc(Sc3nc(NCCN4CCOCC4)nc(Nc4ccc(I)cc4)n3)sc2c1` the enzyme activity was 104%.
